Published values of several laboratories.
A part holds a random share of what one study measured.

Series 1
Target: RING finger protein unkempt homolog, zinc fingers 1-6, GST-SBP tag (UNK, Homo sapiens, UniProt Q9C0B0, residues 30-357)
Technique: RNA Bind-n-Seq
Form: RNA
Matrix: in vitro
Tested at: not given
Setting: RNA with constant flanks, human and mouse sites, ends assumed
Relative to: input RNA pool
Reading: higher = stronger binding
All sequences stand within: GGGAGUUCUACAGUCCGACGAUC … CAACAGAGGAUUGAGCAUCA
Construct (chain): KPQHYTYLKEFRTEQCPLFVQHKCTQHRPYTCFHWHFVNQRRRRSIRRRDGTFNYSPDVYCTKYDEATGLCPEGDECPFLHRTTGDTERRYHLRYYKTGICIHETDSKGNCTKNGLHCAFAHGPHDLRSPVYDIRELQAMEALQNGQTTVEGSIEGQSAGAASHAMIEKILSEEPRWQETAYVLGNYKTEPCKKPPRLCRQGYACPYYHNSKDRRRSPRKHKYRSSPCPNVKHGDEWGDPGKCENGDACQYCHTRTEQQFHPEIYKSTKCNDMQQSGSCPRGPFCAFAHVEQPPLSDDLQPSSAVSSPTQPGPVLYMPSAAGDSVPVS
Sequence | bound/input enrichment [ratio]
AGUCUUGUGAAUGAGACCACUUUGAUUAAAUACUCCAGGCUGCCAACCAUAAACAAGCAUAGUUUCCGGUACUUUGUCUUGGAUAACAGUGUCAUCCUGGCAAUGCUGGAACAACCUCUU | 0.129
CUUCUUUGUCUUUGGAUCAUUUGCGUUCUCAGUGACACAUUUCUCUUCAGUAAUUGUUGCCAAAUUUAUAAGGAAAAAUGAUUCCCAAUGGAUAUUUGAUGUUUGAAGAUGAAAAUUUUA | 0.209
UCUUUGUUUGUAACUUAUCUGUAAAAGGUUUCUCCCUACUGUCAAAAAAAUAUGCAUGUAUAGUAAUUAGGACUUCAUUCCUCCAUGUUUUCUUCCCUUAUCUUACUGUCAUUGUCCUAA | 1.88
GACAGCAGUAGGGAAAUUAGGUGCAGAAUGUUAAGUUCAACCACGGGGCUUUCACCAGGUUAGGUUGUCAAACUCCCCAACAUUGGCAGCUACUGUUUGGGUGGACCCCACACUUGCCUG | 0.527
UGGCGAGAUACUGCAUGUUUGCUGUUCCACAAAGCAGUGGCUUAGCUGCCAUCUUGCUUUUCUUUGGACAACAGGAAGUGAACCUUAAGGAAGAGAGAAUUCUGUUCUAAAACUCCAAAA | 0.0971
CAUUGGAGACUGAGCAAAAGGAAAUGUGAAACGAAUAACAUGAUGGAAUAUGUCAUCCUCAUAGAAUUUUUACCAAAGACACCGAUUUUUCGACCAGAUUAGCAUUUACUUUAUUUAUAG | 28.8
GGGCUGUCAGACCAGACUUCUAUCCUGUCCAACCUGCCUUCAUUUCAGUCUUUCCACAUUGUUAUUCUGGGUUUGGACUGUGCUGGAAAGACAACUGUCUUAUACAGGCUGCAGUUCAAU | 0.212
UUGGAAGAAGUCAAAGUAAGCAGAGAGAUGGACAGGGAAACACUUAUAGAUGUGGCCAGAACAUCUCUUCGUACUAAAGUUCAUGCUGAACUUGCAGAUGUCUUAACAGAGGCUGUAGUG | 0.247
CCUGAAAAGAAAGGUGGCUUGAAGGAGCUGUUUGGAAAGGGCCCUCAAAACGCCUUCUUCCUCGUCAAAUUCUGGGCGGACUUAAACUGCAAUAUCCAAGACGACGCCGGGGCCUUUUAU | 0.0871
GCCUCUGUCCCCCAGUGAUCGGAUCAAGGCGCUGAGCGAGGCCCUGCCUGCGGGGCGGCCAUGCGGCGGUGACAGGAGCGCGACCGACACGCACGGGCCCCUCGCCCCCUCUCGCCUCCC | 0.0878
GUGUUGUGACCCAUUUAACAUACACAAGAAGCUAGCCAAAAAGAACCUGCACGUCAUUGACUUAGAUGAUGCCACUUUUCUGAGCGCCAAGUUUGGAAGACAGCUUGUACCUGGUUGGAA | 0.75

Series 2
Target: Sal-like protein 4, full length isoform A (SALL4, Homo sapiens, UniProt Q9UJQ4, residues 1-1053)
Sequence of UniProt Q9UJQ4 (whole entry, looked up): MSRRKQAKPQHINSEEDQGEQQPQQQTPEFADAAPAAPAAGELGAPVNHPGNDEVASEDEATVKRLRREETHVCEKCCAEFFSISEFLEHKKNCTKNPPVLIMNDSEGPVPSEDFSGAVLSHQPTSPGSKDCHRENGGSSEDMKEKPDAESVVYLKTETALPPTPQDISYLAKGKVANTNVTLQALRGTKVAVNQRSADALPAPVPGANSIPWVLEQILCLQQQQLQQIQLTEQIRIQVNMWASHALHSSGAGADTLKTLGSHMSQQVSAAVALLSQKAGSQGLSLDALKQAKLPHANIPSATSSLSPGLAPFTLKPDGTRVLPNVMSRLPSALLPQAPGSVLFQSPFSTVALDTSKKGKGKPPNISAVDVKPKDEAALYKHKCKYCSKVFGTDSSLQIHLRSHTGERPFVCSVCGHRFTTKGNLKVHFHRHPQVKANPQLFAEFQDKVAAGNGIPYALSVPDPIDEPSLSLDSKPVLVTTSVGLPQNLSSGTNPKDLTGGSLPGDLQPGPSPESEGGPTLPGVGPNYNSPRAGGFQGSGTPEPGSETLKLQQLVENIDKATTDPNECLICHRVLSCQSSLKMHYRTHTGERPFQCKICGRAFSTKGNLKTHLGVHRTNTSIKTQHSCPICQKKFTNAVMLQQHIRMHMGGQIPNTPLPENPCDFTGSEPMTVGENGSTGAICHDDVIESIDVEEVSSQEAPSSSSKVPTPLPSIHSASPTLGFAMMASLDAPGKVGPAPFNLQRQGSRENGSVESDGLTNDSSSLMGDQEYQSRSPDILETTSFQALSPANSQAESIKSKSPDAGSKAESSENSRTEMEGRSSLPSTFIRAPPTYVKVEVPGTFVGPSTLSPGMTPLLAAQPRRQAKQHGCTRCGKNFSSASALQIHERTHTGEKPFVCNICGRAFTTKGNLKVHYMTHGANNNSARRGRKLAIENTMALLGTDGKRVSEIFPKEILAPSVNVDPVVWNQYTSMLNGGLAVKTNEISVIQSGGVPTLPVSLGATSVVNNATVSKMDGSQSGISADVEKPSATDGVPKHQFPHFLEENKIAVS
Technique: universal PBM
Form: double-stranded DNA, one strand shown
Matrix: in vitro
Tested at: 600 nM
Setting: 8-mer, flanks averaged, mean of replicates
Reading: higher = stronger binding
Sequence | E-score
GTGTTCTA | 0.187
AACCAACC | -0.149
CACTGGGA | -0.2
GCACGGGA | -0.292
CAACAGTC | -0.00283
ATTCTCAG | 0.165
CAGTCAAC | -0.136
GCCAGTAC | -0.079
ACAATGGT | 0.0508
CTGAGATC | -0.204
ACGAAGGA | 0.049
GTGAAGTA | 0.158
GTGTCTTA | 0.13
CGTTCCCA | -0.118
CTTATGCC | 0.101
AAGAACGG | -0.174
GCAGGAAC | -0.107
GCAGCCCA | -0.196

Series 3
Target: Ras GTPase-activating protein-binding protein 1, full length (G3BP1, Homo sapiens, UniProt Q13283)
Sequence of UniProt Q13283 (whole entry, looked up): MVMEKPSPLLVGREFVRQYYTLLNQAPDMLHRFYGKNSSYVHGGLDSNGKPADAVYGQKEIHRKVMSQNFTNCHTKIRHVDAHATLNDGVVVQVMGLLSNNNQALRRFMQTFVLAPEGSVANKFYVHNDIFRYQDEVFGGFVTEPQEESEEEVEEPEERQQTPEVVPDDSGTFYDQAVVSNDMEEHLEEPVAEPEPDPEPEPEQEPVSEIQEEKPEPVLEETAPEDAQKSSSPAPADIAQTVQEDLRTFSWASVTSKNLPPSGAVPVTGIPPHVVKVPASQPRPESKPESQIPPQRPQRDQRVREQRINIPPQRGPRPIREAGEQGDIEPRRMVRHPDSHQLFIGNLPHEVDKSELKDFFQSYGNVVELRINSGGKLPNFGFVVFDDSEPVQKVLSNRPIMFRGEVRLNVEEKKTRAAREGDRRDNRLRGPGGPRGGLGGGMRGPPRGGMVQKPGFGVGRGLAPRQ
Technique: RNA Bind-n-Seq
Form: RNA
Matrix: in vitro
Tested at: 200 nM
Setting: whole 134-nt RNA, ends assumed
Added: 150 mM LiCl
Relative to: input library
Reading: higher = stronger binding
Each molecule: 7-deaza-guanosine replaces G
All sequences stand within: GGGAGUUCUACAGUCCGACGAUC … UGGAAUUCUCGGGUGUCAAGG
Sequence | log2 enrichment
CAAGUCCUGUGCUACACAUCGUAUGUACCGAAUCGGGGAGGGGAGGGGAAAGGGGAAAGUAUUAUGUUACGCCGUUCGGAUCUGCACUUC | 0.357
AAGUCCUGUGCUACACAUCGUAUGUACCGAAUCGGAAAAAGGUUUUUUUGGUUUGGAAAGUAUUAUGUUACGCCGUUCGGAUCUGCACUU | -3.3
UGGGAGGUGGAUUUUGUUUAAUUUUUUAGCUCAUUUCCAGGGGUGGGAAUUUUUUUUUAAUAUGUGUCAUGAAUAAAGUUGUUUUUGAAA | -0.258
CACAGACAACACGCACCCACACAGACACAGAGGGCAGGGGUUGGGAUGGGGACAGGGUGCACAGCAGGGCGGGGUAGGACCCCAGCCCCU | -0.667
UCAAGUCCUGUGCUACACAUCGUAUGUACCGAAUCGGAAAGGAAAGGAAAAAGGAAAGUAUUAUGUUACGCCGUUCGGAUCUGCACUUCC | -0.205
UGGCCCUGGUGGCAUGCGGGGAGGAAGAGGCGGCCUCAUGGAUCGUGGUGGUCCCGGUGGAAUGUUCAGAGGUGGCCGUGGUGGAGACAG | 0.0449
UUUCUAGCUGGACCAGUCCGGUACGCUCCGGGCCUCACCGAGGAAGUCCCACCCUGCAGGGGAACCGACUCUGGCCGGCCCUAACCCCUC | 0.417
CACAGACAACACGCACCCACACAGACACAGAGGGAAGGGGUUGGGAUGGGGACAGGGUGCACAGCAGGGCGGGGUAGGACCCCAGCCAAA | -0.694
GUCCUGUGCUACACAUCGUAUGUACCGAAUCGGGGCCCCCGGGCCCCCGGCCCCCGGGGAAAGUAUUAUGUUACGCCGUUCGGAUCUGCA | -0.66
CCUGUGCUACACAUCGUAUGUACCGAAUCGGGGAAAAAAAGGAAAAAAAGGAAAAAAAGGGAAAGUAUUAUGUUACGCCGUUCGGAUCUG | 0.0229
AGUCCUGUGCUACACAUCGUAUGUACCGAAUCGGGGUUUUUUUGGGGUGGGGUGGGGAAAGUAUUAUGUUACGCCGUUCGGAUCUGCACU | 0.351

Series 4
Target: RNA binding protein fox-1 homolog 2, RRM domain, GST-SBP tag (RBFOX2, Homo sapiens, UniProt O43251-10, residues 100-194)
Technique: RNA Bind-n-Seq
Form: RNA
Matrix: in vitro
Tested at: 365 nM
Setting: natural RNA segment, single round, ends assumed
Relative to: no-protein control
Reading: higher = stronger binding
All sequences stand within: GGGAGUUCUACAGUCCGACGAUC … UGGAAUUCUCGGGUGCCAA
Construct (chain): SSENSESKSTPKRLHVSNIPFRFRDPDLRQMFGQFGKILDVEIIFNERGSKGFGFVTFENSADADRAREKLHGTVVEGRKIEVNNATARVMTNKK
Sequence | RBNS enrichment (R)
AAGAAAAUUCUAGCCAUGACCAGUGGUCCCUCAGAGCUAACCAUCUCUGAGGCAUUGUGGUGGUCCCUUGUCUGAUAAAUAAAUAAUGAAUAAAUAAAAGUUAUAUCAGA | 0.413
UGAUUUUAGAUAAAGUAAGCCUAGGUGUUGUCAGCAGGCAGGCUGGGGAGGCCAGUGUUGUGGGCUUCCUGCUGGGACUGAGAAGGCUCACGAAGGGCAUCCGCAAUGUU | 1.21
GGAAAAGCUUGGGCGGUGCCCAGCGUGCCCGCUGCCCAUCGACGUCUGUCCUGGGGACGUGGAGGGUGGCAGCGUCCCCGCCUGCACCAGUGCCGUCCUGCUGAUGUGGU | 0.535
UUCCACUCGCCCACCAGAAGCAGCUCUAGUCACCUGCACAACCGCUUCCAUGACCUUGGAGGUAUAUCCCAAGCUCUCAUUGGCAGAUGAGGCAAGAGAUAAGGGCAGGA | 0.45
UUCUUCUCCCUCCAACCAGAGUUGUGUCUAACUUUAGGCAUCUUUUAAUAAAUGUCAUUGCGACUCUAUGACCGGUGUGGUUAAAGAGAAGGGCAGGGGCGUUCUGGAGG | 0.352
GAUUCAAAGGGUAUACAGCAUUUUGUUUUCUAGUACCAUUGCUUCACUGGGAGCUCAAAAUUUGCCUCCCUGUUAGUCUUUAAUAACUGAGUAGAGUAGCUUUUUUAUUC | 1.23
CUAAGUUGCACCAACUUUGAAGUCUGAUUUUCCUGGACAGUUUUCUGCUUUAAUUUCAUGAAAAGAUUAUGAUCUCAGAAAUUGUAUCUUAGUUGGUAUCAACCAAAUGG | 0.393
GCACUAGCAUCCAGAGUCAGAGUUGGUCUGGUGGCUCCAGCCCCACGUGGUAGGCUCCACACUGGGCCUCACAUGGAAUGGUUUCCUGCUCAGAUCCAGUCCACGGGUCC | 0.551
GAAUAUACUGAAGACAAAGCCUGCGUGAUUAGUUAGAACCGAUGAAUACAGCGUCAGAAGGAUGCCAUAACCAUUCUGUUCCUUUACAGAACUAAAUUGCCGCAGACAGG | 0.57
AUGGACAUUUUUGUAACUCAGCUCAUAUUCUGACUGUAUUUGAGAAGCUGGCUGUUUAAGGGAACCCAGAAGUGAAUUCUUUUGUAAAGUAAAGCACCCUUUUGUAAUGC | 1.2
GUUGCAUUUUAAUCAGUAAUCUACCUGGUGGAUUUGUUUUUAACCAAAAAGAUGAAUUAUCAAUGAUUUGUAAUUAUAUCAGUUGAUUUUUUUUGAAAAGAUGAACCAAA | 1.17
AAGAGGAGCUGCCUAGCCUGGCAGCAUUGCCCCGAGCUGAGCCCCCUUGGCCAGGACUUCACAAGGCUCACACCUACAAUCCCAUGAAGGCCAGGGUGGUCUGCUUAGCC | 0.289

Excerpt of the above (series 2):
Sequence | E-score
CACTGGGA | -0.2
ACGAAGGA | 0.049
CAACAGTC | -0.00283
GTGAAGTA | 0.158
GCAGCCCA | -0.196
CTGAGATC | -0.204
GTGTTCTA | 0.187
